Results pooled from the literature.
Protocols differ between the studies behind these lines. ± gives the spread as reported.
Chain of UniProt O95136 (whole entry, looked up): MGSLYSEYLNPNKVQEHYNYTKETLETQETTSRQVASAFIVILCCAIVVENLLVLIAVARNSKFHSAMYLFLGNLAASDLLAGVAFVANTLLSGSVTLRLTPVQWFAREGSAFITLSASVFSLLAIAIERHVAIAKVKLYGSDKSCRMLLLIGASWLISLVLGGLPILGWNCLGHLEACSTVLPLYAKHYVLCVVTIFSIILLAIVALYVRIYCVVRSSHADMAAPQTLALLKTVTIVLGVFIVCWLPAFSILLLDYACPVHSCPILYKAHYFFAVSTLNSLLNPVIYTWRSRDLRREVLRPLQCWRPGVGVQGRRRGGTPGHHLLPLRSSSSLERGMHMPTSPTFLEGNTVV
Chain of UniProt Q71U36 (whole entry, looked up): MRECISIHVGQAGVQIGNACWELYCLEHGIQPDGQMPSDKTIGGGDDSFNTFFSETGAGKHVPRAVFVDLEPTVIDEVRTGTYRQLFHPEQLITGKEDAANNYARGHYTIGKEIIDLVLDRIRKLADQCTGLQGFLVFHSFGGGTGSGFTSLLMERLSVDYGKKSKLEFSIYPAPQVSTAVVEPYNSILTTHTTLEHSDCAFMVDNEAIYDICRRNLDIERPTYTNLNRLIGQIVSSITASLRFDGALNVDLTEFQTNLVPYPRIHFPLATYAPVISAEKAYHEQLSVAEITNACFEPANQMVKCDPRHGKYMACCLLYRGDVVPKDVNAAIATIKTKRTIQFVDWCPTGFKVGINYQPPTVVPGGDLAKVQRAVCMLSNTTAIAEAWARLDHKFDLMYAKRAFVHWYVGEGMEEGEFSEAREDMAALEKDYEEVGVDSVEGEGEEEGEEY
Chain of UniProt Q13315 (whole entry, looked up): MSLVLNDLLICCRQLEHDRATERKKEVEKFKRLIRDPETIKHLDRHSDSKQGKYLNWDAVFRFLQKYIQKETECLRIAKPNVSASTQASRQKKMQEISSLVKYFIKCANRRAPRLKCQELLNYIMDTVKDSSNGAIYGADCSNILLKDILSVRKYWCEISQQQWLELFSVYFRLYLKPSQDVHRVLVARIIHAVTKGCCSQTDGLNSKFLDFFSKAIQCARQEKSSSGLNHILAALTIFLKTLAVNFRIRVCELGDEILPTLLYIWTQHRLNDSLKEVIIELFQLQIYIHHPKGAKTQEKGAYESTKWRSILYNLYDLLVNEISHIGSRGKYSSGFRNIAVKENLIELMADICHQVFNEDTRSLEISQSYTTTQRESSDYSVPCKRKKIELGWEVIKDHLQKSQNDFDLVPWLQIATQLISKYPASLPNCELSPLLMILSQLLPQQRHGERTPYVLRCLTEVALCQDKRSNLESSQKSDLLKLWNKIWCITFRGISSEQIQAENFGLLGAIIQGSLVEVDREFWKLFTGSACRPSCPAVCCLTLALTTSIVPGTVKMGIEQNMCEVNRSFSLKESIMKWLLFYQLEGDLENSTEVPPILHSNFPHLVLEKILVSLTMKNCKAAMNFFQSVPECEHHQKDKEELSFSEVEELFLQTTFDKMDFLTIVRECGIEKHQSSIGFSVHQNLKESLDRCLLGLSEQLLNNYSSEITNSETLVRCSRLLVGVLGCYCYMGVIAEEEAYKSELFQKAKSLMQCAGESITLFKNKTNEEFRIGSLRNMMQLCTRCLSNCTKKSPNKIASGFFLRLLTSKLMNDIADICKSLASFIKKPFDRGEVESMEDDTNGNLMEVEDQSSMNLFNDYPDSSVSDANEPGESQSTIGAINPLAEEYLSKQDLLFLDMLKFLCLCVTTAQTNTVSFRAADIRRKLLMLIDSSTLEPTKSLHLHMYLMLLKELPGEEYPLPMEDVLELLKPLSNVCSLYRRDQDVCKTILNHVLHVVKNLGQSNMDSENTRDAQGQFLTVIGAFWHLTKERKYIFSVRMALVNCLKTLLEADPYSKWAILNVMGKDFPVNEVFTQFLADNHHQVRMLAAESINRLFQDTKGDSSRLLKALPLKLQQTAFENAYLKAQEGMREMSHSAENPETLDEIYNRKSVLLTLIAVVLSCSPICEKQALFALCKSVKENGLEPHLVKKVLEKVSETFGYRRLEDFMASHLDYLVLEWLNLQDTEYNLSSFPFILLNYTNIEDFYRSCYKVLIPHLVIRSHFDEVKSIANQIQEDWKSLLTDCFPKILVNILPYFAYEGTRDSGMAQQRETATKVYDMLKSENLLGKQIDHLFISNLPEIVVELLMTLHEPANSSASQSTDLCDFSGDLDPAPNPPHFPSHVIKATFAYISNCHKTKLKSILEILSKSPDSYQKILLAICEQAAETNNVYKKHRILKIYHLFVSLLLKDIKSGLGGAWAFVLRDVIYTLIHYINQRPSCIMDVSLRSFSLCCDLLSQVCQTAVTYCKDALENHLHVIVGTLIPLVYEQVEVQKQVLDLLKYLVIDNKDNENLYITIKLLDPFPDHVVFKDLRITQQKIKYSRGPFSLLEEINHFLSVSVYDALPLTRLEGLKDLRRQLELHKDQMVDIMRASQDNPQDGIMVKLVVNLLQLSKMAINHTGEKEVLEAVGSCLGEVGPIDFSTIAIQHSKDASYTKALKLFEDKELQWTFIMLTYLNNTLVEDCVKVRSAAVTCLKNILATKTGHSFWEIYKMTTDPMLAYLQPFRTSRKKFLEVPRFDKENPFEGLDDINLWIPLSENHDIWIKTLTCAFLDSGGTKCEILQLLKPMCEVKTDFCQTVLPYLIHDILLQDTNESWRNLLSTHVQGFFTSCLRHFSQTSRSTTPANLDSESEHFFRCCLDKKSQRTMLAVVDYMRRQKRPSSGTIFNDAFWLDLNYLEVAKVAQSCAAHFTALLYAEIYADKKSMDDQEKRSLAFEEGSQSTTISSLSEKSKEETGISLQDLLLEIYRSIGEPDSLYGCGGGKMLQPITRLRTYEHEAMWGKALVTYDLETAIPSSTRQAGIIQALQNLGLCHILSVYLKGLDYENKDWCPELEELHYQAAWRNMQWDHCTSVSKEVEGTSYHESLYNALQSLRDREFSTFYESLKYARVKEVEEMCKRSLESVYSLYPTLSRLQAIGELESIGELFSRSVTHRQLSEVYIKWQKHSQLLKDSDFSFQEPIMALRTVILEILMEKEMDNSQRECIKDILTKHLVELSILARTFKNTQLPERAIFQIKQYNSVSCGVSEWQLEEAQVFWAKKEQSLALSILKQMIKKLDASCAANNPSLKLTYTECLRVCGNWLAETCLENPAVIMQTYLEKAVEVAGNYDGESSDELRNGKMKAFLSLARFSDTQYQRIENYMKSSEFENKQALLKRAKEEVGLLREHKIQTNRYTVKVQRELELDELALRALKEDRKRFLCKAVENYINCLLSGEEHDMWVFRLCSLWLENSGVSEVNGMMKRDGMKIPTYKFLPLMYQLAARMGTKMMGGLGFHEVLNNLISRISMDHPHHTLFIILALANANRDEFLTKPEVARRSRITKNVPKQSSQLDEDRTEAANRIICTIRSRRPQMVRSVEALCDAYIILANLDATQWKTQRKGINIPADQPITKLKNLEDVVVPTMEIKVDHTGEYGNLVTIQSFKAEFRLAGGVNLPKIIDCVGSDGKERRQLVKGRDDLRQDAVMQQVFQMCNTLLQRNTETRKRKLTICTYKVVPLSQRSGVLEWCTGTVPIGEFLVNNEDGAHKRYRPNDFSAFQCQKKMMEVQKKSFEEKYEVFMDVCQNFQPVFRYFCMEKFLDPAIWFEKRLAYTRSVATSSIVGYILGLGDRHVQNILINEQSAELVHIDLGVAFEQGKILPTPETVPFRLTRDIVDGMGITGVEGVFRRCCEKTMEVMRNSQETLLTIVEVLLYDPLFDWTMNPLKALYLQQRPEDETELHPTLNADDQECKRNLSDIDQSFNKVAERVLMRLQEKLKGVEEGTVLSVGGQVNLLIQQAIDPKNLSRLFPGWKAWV

Structure (SMILES) | target or system | assay | test system | setting | how to read | quantity | result
C[C@]1(CO)Cc2ncn(-c3ccc(C#N)c(Cl)c3)c2C(=O)O1 | – | – | healthy humans | 10 mg, fed | – | drug-related Fatigue incidence | 0%
C=CC(=O)Nc1cc(Nc2nccc(Nc3cc(Cl)c(F)cc3C(C)(C)O)n2)c(OC)cc1N1CC[C@@H](N(C)C)C1 | – | – | human patients | oral, 100 mg, treatment-emergent adverse events | – | patients with diarrhoea | 11.1%
O=C1Nc2cc3[nH]nc(-c4ccncc4)c3cc2CN1Cc1ccccc1 | – | CTCAE v4.03 | advanced solid tumour patients | intravenous, 0.9 mg/kg, schedules 1/2 | – | patients with decreased appetite | 0%
CC[C@H](C)[C@@H]1NC(=O)[C@@H]2CCCN2C(=O)[C@H](CC(C)C)NC(=O)[C@H](CC(C)C)NC(=O)CNC(=O)[C@@H](NC(=O)[C@@H](NC(=O)[C@H](CC(=O)O)NC(=O)CNC(=O)[C@@H](NC(=O)[C@H](C)NC(=O)CNC(=O)[C@H](CCCCN)NC(=O)[C@H](CC(C)C)NC(=O)[C@H](CC(C)C)NC(=O)[C@H](CCCCN)NC(=O)CNC(=O)[C@@H](NC(=O)[C@@H](N)CC(C)C)C(C)C)C(C)C)C(C)C)CSSC[C@@H](C(=O)O)NC1=O | – | RNA-seq, measured: Rassf4 | mouse, traumatic brain injury model, frontal cortex and hippocampus | dose not given | reference: TBI alone | log2 fold change | -0.724
CC[C@H](C)[C@H](NC(=O)[C@H](Cc1ccccc1)NC(=O)[C@H](CCC(=O)O)NC(=O)[C@H](CCCNC(=N)N)NC(=O)[C@H](C)NC(=O)[C@H](C)NC(=O)[C@H](CCC(N)=O)NC(=O)[C@H](CCC(=O)O)NC(=O)[C@H](CCC(=O)O)NC(=O)[C@H](CC(C)C)NC(=O)[C@H](Cc1ccc(O)cc1)NC(=O)[C@H](CO)NC(=O)[C@H](CO)NC(=O)[C@@H](NC(=O)[C@H](CC(=O)O)NC(=O)[C@H](CO)NC(=O)[C@@H](NC(=O)[C@H](Cc1ccccc1)NC(=O)[C@@H](NC(=O)CNC(=O)[C@H](CCC(=O)O)NC(=O)[C@H](C)NC(=O)CCc1c[nH]cn1)[C@@H](C)O)[C@@H](C)O)C(C)C)C(=O)N[C@@H](C)C(=O)N[C@@H](Cc1c[nH]c2ccccc12)C(=O)N[C@@H](CC(C)C)C(=O)N[C@H](C(=O)N[C@@H](CCCNC(=N)N)C(=O)NCC(=O)N[C@@H](CCCNC(=N)N)C(=O)N[C@@H](CCCCNC(=O)COCCOCCNC(=O)COCCOCCNC(=O)CC[C@H](NC(=O)CCCCCCCCCCCCCCCCC(=O)O)C(=O)O)C(=O)NCC(=O)NCC(=O)N[C@@H](CO)C(=O)N[C@@H](CCCCNc1c(NCCCCCN(O)C(=O)CCC(=O)NCCCCCN(O)C(=O)CCC(=O)NCCCCCN(O)C(C)=O)c(=O)c1=O)C(=O)O)C(C)C [zirconium-89 labelled] | – | – | rat, brain | iv, 3 nmol/kg, 72 h, ex vivo | – | tissue uptake | 0.01 %ID/g
COc1cc(Nc2ncc(F)c(Nc3ccc4c(n3)NC(=O)C(C)(C)O4)n2)cc(OC)c1OC | Xanthine dehydrogenase/oxidase (XDH, Bos taurus, UniProt P80457) | – | – | – | – | IC50 | > 10 µM
C[C@@H](NC(=O)N1C(=O)[C@H](Cc2ccnc(N)c2)[C@H]1C(=O)O)C1CCCCC1 | – | – | healthy adult Chinese volunteers | continuous intravenous infusion, 0.3 mg/kg/h, 5-day infusion, CTCAE 5.0 grading | – | drug-related decreased neutrophil | 0%
C[C@H]1CN(c2n[nH]c3nc(N[C@H]4CC[C@H](NS(=O)(=O)CCC(F)(F)F)CC4)ncc23)CCO1 | Tubulin alpha-1A chain (Homo sapiens, UniProt Q71U36) | Kinobeads competition, measured: TUBA1A | – | 0.8 µM, unit not given | reference: vehicle | remaining binding | 1.17
O=C(c1ccc(F)c(F)c1Nc1ccc(I)cc1F)N1CC(O)([C@@H]2CCCCN2)C1 | – | – | human patients | oral, 1 mg/kg, dose expansion | – | AE causing dose modification | 25%
O=C1c2ccccc2C(=O)c2ccccc21 | HK-2 co-cultured with HepaRG | MTT | – | 133.33 µM, 48 h | reference: untreated control | viability | 38.4 ± 5.48%
Cn1c(-c2ccc(C(N)=O)cc2F)nnc1C(C)(C)Oc1c(F)cc(Cl)cc1F | – | – | human | oral, 1 mg, single ascending dose, incl. administration site | – | general disorder TEAE | 16.7%
COc1ccc(N2C(=O)N(c3c(C)cccc3Cl)Cc3cnc(Nc4ccc(C5CCN(C)CC5)cc4OC)nc32)nc1 | Serine-protein kinase ATM (ATM, Homo sapiens, UniProt Q13315) | kinase activity | – | 0.5 µM | – | inhibition | -0.5%
COc1cc2c(Oc3ccc4[nH]c(C)cc4c3F)ccnc2cc1OCC1(N)CC1 | – | – | paediatric recurrent refractory sarcoma | 10 mg | – | grade 1 or 2 sinus arrhythmia | 0%
COc1cc(-c2coc3cc4c(c(OC)c3c2=O)OCO4)cc(OC)c1OC | – | – | Sprague Dawley rat, plasma | oral, 10 g lyophilized powder/kg, high dose | – | Tmax | 2.29 ± 0.95 h
CC(C)(c1ccccc1)c1cc(-n2nc3ccccc3n2)c(O)c(C(C)(C)c2ccccc2)c1 | – | exposure assessment | human, age 16-21 years | concentration not given, cream, 95th percentile | – | daily dermal uptake, percentile | 4.2 ng/kg body weight/day
CN1CCN(c2cc(-c3ccncc3)c(-c3ccc4ccccc4c3)nn2)CC1 | Sphingosine 1-phosphate receptor 2 (S1PR2, Homo sapiens, UniProt O95136) | antagonist, FLIPR | – | 10 µM | – | inhibition | 8.7%
CCc1ccc(CC/C=C/c2ccc3c(c2)C(=O)CC3)cc1 | – | – | Sprague-Dawley rat, female, blood | oral, 120 mg/kg/day, 14 days | – | large unstained cells | 1.57%
COc1cccc2c1C(=O)c1c(O)c3c(c(O)c1C2=O)C[C@@](O)(/C(CO)=N/NC(=O)CCCCCN1C(=O)C=CC1=O)C[C@@H]3O[C@H]1C[C@H](N)[C@H](O)[C@H](C)O1 | – | HPLC | PBS | 200 µM, pH 6.5, 37 °C | – | payload release | > 90%
CN(C(=O)n1cnc(-c2ccc[n+]([O-])c2)c1)C1CCCCC1 | – | – | Wistar rat, cerebellum | oral, 10 mg/kg/day, 4 h, repeated 5 days | – | concentration | 88 ± 36.8 ng/g
O=C(Nc1ccccc1)C1CCN(C(=O)Oc2cccnc2)CC1 | – | – | healthy female subjects | oral, 100 mg | – | subjects with vascular disorder AEs | 7.7%
CC[C@H](C)CCCCC(=O)N[C@@H](CCN)C(=O)N[C@H](C(=O)N[C@@H](CCN)C(=O)N[C@H]1CCNC(=O)[C@H]([C@@H](C)O)NC(=O)[C@H](CCN)NC(=O)[C@H](CCN)NC(=O)[C@H](CC(C)C)NC(=O)[C@@H](Cc2ccccc2)NC(=O)[C@H](CCN)NC1=O)[C@@H](C)O | – | – | critically ill patients, plasma | dose not given, median, fifth infusion | – | Cmax at steady state | 6600 ng/mL
